Assay results of several laboratories.
Lines come from different studies, so protocols differ. Several values in a cell are separate wells, animals, samples, runs or records. ± gives the spread as reported.

| Structure (SMILES) | test | test system | conditions | how to read | endpoint | result |
| --- | --- | --- | --- | --- | --- | --- |
| CC[C@H](C)[C@H](NC(=O)[C@H](Cc1c[nH]cn1)NC(=O)[C@H](CCCCN)NC(=O)[C@H](C)NC(=O)[C@H](C)NC(=O)[C@H](Cc1c[nH]cn1)NC(=O)[C@H](CCCNC(=N)N)NC(=O)CNC(=O)[C@H](Cc1c[nH]cn1)NC(=O)[C@H](CCCCN)NC(=O)[C@H](Cc1ccccc1)NC(=O)[C@@H](NC(=O)[C@H](CO)NC(=O)CNC(=O)[C@H](Cc1c[nH]c2ccccc12)NC(=O)CN)[C@@H](C)CC)C(=O)NCC(=O)N[C@@H](Cc1c[nH]cn1)C(=O)N[C@@H](C)C(=O)N[C@@H](C)C(=O)N[C@H](C(=O)N[C@@H](CC(N)=O)C(=O)N[C@@H](Cc1c[nH]cn1)C(=O)N[C@@H](Cc1ccc(O)cc1)C(=O)N[C@@H](CC(C)C)C(N)=O)C(C)C |  | zebrafish embryos 28 hpf, E3 medium | 24 h |  | chronic toxic concentration | 25 µM |
| COc1cnc2cccc(N3CCc4c(cc(Cn5ccnc5)cc4-c4cn(C)nc4C(F)(F)F)C3=O)c2c1 |  | CD-1 mouse | intraperitoneal, 100 mg/kg once daily, day 3, dose-escalation tolerability | reference: day 1 | body weight change | 5.6% |
| CCCCCCCCCCCC(=O)C(C)C(=O)N1CCC[C@H]1C(=O)NC(C)(C)C(=O)NC(C)(C)C(=O)NC(C)(C)C(=O)N[C@](C)(CC)C(=O)NCCC(=O)N[C@@H](C)C(=O)N[C@](C)(CC)C(=O)N[C@@H](C)C(=O)N[C@@H](CC(C)C)C(=O)N[C@](C)(CC)C(=O)NCCC(=O)N[C@@H](C)C(=O)N[C@](C)(CC)C(=O)NCCC(=O)N[C@@H](C)C(=O)NC(C)(C)C(=O)NC(C)(C)C(=O)NC(C)(C)C(=O)N[C@@H](C)C(=O)N[C@@H](CC(=O)O)C(=O)O (stereo partly drawn) | LC-MS | buffer with human neutrophil elastase | 40 µM, 540 min, pH 7.5, 37 °C | reference: 0 h | remaining intact peptide | 54.9% and 54.6% and 57.3% |
| COc1cc2c(cc1O)C(CCc1ccc(Cl)cc1)N([11CH3])CC2 (stereo not drawn) | PET | Sprague-Dawley rat, male, brain | intravenous, 20.5 MBq, no carrier added |  | time to peak brain radioactivity | ~5 min |
| Cc1ccc(C(C)C)cc1.O=C(N=P(c1ccccc1)(c1ccccc1)c1ccccc1)c1ccccn1.[Cl-].[Cl][Ru+] | LC-MS shake flask | 1-octanol/PBS |  |  | logP | 1.45 ± 0.02 |
| CC(C)C[C@@H](NC(=O)[C@@H](CCCNC(=N)N)NC(=O)[C@@H](Cc1c[nH]cn1)NC(=O)[C@@H](Cc1c[nH]c2ccccc12)NC(=O)[C@@H](Cc1c[nH]cn1)NC(=O)[C@@H](Cc1ccccc1)NC(=O)[C@H](NC(=O)[C@@H](Cc1ccc(O)cc1)NC(=O)CNC(=O)CNC(=O)CCOCCOCCOCCNC(=O)CN1CCN(CC(=O)O)CCN(CC(=O)O)CC1)[C@H](C)O)C(=O)N[C@H](CC(N)=O)C(=O)N1CCC[C@@H]1C(=O)O [gallium-68 labelled] |  | male C57BL/6 mice | intravenous, 1.85 MBq, 60 min, with: antibody blocking | reference: tumour over lung | tumour-to-tissue ratio | 4.25 ± 0.92 |
| CSCC[C@H](N)C(=O)N[C@@H](C)C(=O)N[C@@H](Cc1c[nH]c2ccccc12)C(=O)N[C@@H](Cc1c[nH]cn1)C(=O)N[C@@H](CC(=O)O)C(=O)N[C@@H](CC(=O)O)C(=O)N[C@@H](CCC(=O)O)C(=O)N[C@@H](CCC(=O)O)C(=O)N[C@@H](Cc1ccccc1)C(=O)N[C@@H](C)C(=O)N[C@@H](CCCNC(=N)N)C(=O)N[C@@H](CCCNC(=N)N)C(=O)N[C@@H](CCCNC(=N)N)C(=O)N[C@@H](CCCNC(=N)N)C(=O)NCCCCCC(=O)NCCCCC(NC(=O)CCCCCNC(=O)[C@H](CCCNC(=N)N)NC(=O)[C@H](CCCNC(=N)N)NC(=O)[C@H](CCCNC(=N)N)NC(=O)[C@H](CCCNC(=N)N)NC(=O)[C@H](C)NC(=O)[C@H](Cc1ccccc1)NC(=O)[C@H](CCC(=O)O)NC(=O)[C@H](CCC(=O)O)NC(=O)[C@H](CC(=O)O)NC(=O)[C@H](CC(=O)O)NC(=O)[C@H](Cc1c[nH]cn1)NC(=O)[C@H](Cc1c[nH]c2ccccc12)NC(=O)[C@H](C)NC(=O)[C@@H](N)CCSC)C(=O)NCCCCC(NC(=O)C(CCCCNC(=O)CCCCCNC(=O)[C@H](CCCNC(=N)N)NC(=O)[C@H](CCCNC(=N)N)NC(=O)[C@H](CCCNC(=N)N)NC(=O)[C@H](CCCNC(=N)N)NC(=O)[C@H](C)NC(=O)[C@H](Cc1ccccc1)NC(=O)[C@H](CCC(=O)O)NC(=O)[C@H](CCC(=O)O)NC(=O)[C@H](CC(=O)O)NC(=O)[C@H](CC(=O)O)NC(=O)[C@H](Cc1c[nH]cn1)NC(=O)[C@H](Cc1c[nH]c2ccccc12)NC(=O)[C@H](C)NC(=O)[C@@H](N)CCSC)NC(=O)CCCCCNC(=O)[C@H](CCCNC(=N)N)NC(=O)[C@H](CCCNC(=N)N)NC(=O)[C@H](CCCNC(=N)N)NC(=O)[C@H](CCCNC(=N)N)NC(=O)[C@H](C)NC(=O)[C@H](Cc1ccccc1)NC(=O)[C@H](CCC(=O)O)NC(=O)[C@H](CCC(=O)O)NC(=O)[C@H](CC(=O)O)NC(=O)[C@H](CC(=O)O)NC(=O)[C@H](Cc1c[nH]cn1)NC(=O)[C@H](Cc1c[nH]c2ccccc12)NC(=O)[C@H](C)NC(=O)[C@@H](N)CCSC)C(N)=O (stereo partly drawn) |  | C57BL/6 mouse female, spine | dose not given, 3 h | reference: total | mean tissue distribution | 6.74% |
| CC(C)=CCC/C(C)=C/CCn1cc(CC(C)(P(=O)(O)O)P(=O)(O)O)nn1 |  | mouse CD-1 | intravenous, 0.3 mg/kg, 8 h | reference: dose | biliary excretion | 0.81% |
| CCC1CC(c2ccc(C(=O)O)cc2C)=NN1c1ccc(C#N)c(Cl)c1 (stereo not drawn) |  | mouse, liver microsomes | 1 µM |  | intrinsic clearance | < 5 µL/min/mg |
| CCc1nnc(-c2c(OC)cc(-c3cnc4cc(-c5cnn(C)c5)ccn34)cc2OC)o1 |  | mouse plasma |  |  | unbound fraction | 0.038 |
| CN1Cc2cc(Cl)ccc2-n2c(nnc2C2CCN(c3cccc([18F])n3)CC2)C1 |  | C57BL/6 mouse male, bone | intravenous, 3.7 MBq, 60 min |  | tissue uptake | 10.4 ± 3.5 %ID/g |
| CSCC[C@H](NC(=O)CNC(=O)[C@H](CCCCN)NC(=O)[C@H](CC(C)C)NC(=O)[C@@H]1CCCN1C(=O)[C@H](CO)NC(=O)[C@H](Cc1c[nH]cn1)NC(=O)[C@H](Cc1c[nH]c2ccccc12)NC(=O)[C@H](CCCNC(=N)N)NC(=O)[C@H](CC(C)C)NC(=O)[C@H](CCCNC(=N)N)NC(=O)[C@H](Cc1c[nH]c2ccccc12)NC(=O)[C@H](CS)NC(=O)CCCCCNC(=O)CN1CCN(CC(=O)O)CCN(CC(=O)O)CCN(CC(=O)O)CC1)C(=O)O [copper-64 labelled] |  | BALB/c nude mouse, Huh-7 tumour, tumour and blood | intravenous, 1.85 MBq, 6 h, ex vivo biodistribution | reference: tumour over blood | tumour-to-blood ratio | 5.39 |
| CN[C@H](CC(C)C)C(=O)N[C@H]1C(=O)N[C@@H](CC(N)=O)C(=O)N[C@H]2C(=N)N[C@H]3C(=O)N[C@H](C(=O)N[C@H](C(=O)NCCC[N+](C)(C)C)c4cc(O)cc(O)c4-c4cc3ccc4O)[C@H](O)c3ccc(c(Cl)c3)Oc3cc2cc(c3O[C@@H]2O[C@H](CO)[C@@H](O)[C@H](O)[C@H]2O[C@H]2C[C@](C)(NCc3ccc(-c4ccc(Cl)cc4)cc3)[C@H](O)[C@H](C)O2)Oc2ccc(cc2Cl)[C@H]1O |  | mouse |  |  | MTD | ≥ 50 mg/kg |
| CC(C)c1ccccc1/N=N/c1ccc2[nH]cc(CCN(C)C)c2c1 | light irradiation | solution | with: light 385 nm |  | cis isomer at photostationary state | 83% |
| O=C1NC2(CC2)COc2ncc(F)cc2[C@H]2COCCN2c2ccn3ncc1c3n2 |  | Sprague-Dawley rat, male, testes | oral, 2.5 mg/kg/day, 4 weeks, end of treatment |  | organ-to-brain weight ratio | 152 ± 15.6% |
| N#[11C]c1ccc(-c2csc(NN=C3CCCC3)n2)cc1 |  | C57BL/6 mice, male, liver | intravenous, 3 MBq, 15 min |  | radioactivity uptake | 10.7 ± 1.1 %ID/g |
| CC1(C)C(=O)N(c2ccc(C#N)c(C(F)(F)F)c2)C(=S)N1c1ccc(C(N)=O)c(F)c1 |  | human, male, plasma | oral, 160 mg, single dose, fasting |  | half-life | 10.2 ± 3.9 days |
| CC[C@H](C)[C@H](NC(=O)[C@H](CCCCN)NC(=O)CNC(=O)[C@H](CC(C)C)NC(=O)[C@H](Cc1ccccc1)NC(=O)[C@H](CCCCN)NC(=O)[C@H](CO)NC(=O)[C@H](Cc1ccccc1)NC(=O)[C@H](Cc1c[nH]c2ccccc12)NC(=O)[C@H](CCC(N)=O)NC(=O)[C@@H](NC(=O)[C@H](Cc1ccccc1)NC(=O)CCCCCNC(=O)CN1CCN(CC(=O)O)CCN(CC(=O)O)CCN(CC(=O)O)CC1)C(C)C)C(=O)N[C@@H](CCC(=O)O)C(=O)N1CCC[C@H]1C(=O)N[C@@H](CC(=O)O)C(=O)N[C@H](C(=O)N[C@@H](CO)C(=O)N[C@@H](CCC(N)=O)C(=O)N[C@H](C(=O)N[C@@H](CCC(N)=O)C(=O)N[C@@H](CC(=O)O)C(=O)N1CCC[C@H]1C(=O)N[C@@H](CC(N)=O)C(=O)N[C@@H](CC(=O)O)C(=O)N[C@@H](CCC(N)=O)C(=O)N[C@@H](Cc1ccc(O)cc1)C(=O)N[C@@H](CCC(=O)O)C(=O)N1CCC[C@H]1C(=O)N[C@@H](Cc1ccccc1)C(=O)O)C(C)C)C(C)C [copper-64 labelled] |  | C57BL/6 mice, kidneys | with: LPS 3 mg/kg intratracheal |  | tissue uptake | 35.3 ± 2.7 %ID/g |

Excerpt of the above:
| Structure (SMILES) | test | test system | conditions | how to read | endpoint | result |
| --- | --- | --- | --- | --- | --- | --- |
| CCCCCCCCCCCC(=O)C(C)C(=O)N1CCC[C@H]1C(=O)NC(C)(C)C(=O)NC(C)(C)C(=O)NC(C)(C)C(=O)N[C@](C)(CC)C(=O)NCCC(=O)N[C@@H](C)C(=O)N[C@](C)(CC)C(=O)N[C@@H](C)C(=O)N[C@@H](CC(C)C)C(=O)N[C@](C)(CC)C(=O)NCCC(=O)N[C@@H](C)C(=O)N[C@](C)(CC)C(=O)NCCC(=O)N[C@@H](C)C(=O)NC(C)(C)C(=O)NC(C)(C)C(=O)NC(C)(C)C(=O)N[C@@H](C)C(=O)N[C@@H](CC(=O)O)C(=O)O (stereo partly drawn) | LC-MS | buffer with human neutrophil elastase | 40 µM, 540 min, pH 7.5, 37 °C | reference: 0 h | remaining intact peptide | 54.9% and 54.6% and 57.3% |
| CC(C)C[C@@H](NC(=O)[C@@H](CCCNC(=N)N)NC(=O)[C@@H](Cc1c[nH]cn1)NC(=O)[C@@H](Cc1c[nH]c2ccccc12)NC(=O)[C@@H](Cc1c[nH]cn1)NC(=O)[C@@H](Cc1ccccc1)NC(=O)[C@H](NC(=O)[C@@H](Cc1ccc(O)cc1)NC(=O)CNC(=O)CNC(=O)CCOCCOCCOCCNC(=O)CN1CCN(CC(=O)O)CCN(CC(=O)O)CC1)[C@H](C)O)C(=O)N[C@H](CC(N)=O)C(=O)N1CCC[C@@H]1C(=O)O [gallium-68 labelled] |  | male C57BL/6 mice | intravenous, 1.85 MBq, 60 min, with: antibody blocking | reference: tumour over lung | tumour-to-tissue ratio | 4.25 ± 0.92 |
